Experimental data pooled from the literature.
Every numbered part comes from another study and shows a few of its results, in no order.
UniProt Q9Y5S2, sequence (whole entry, looked up): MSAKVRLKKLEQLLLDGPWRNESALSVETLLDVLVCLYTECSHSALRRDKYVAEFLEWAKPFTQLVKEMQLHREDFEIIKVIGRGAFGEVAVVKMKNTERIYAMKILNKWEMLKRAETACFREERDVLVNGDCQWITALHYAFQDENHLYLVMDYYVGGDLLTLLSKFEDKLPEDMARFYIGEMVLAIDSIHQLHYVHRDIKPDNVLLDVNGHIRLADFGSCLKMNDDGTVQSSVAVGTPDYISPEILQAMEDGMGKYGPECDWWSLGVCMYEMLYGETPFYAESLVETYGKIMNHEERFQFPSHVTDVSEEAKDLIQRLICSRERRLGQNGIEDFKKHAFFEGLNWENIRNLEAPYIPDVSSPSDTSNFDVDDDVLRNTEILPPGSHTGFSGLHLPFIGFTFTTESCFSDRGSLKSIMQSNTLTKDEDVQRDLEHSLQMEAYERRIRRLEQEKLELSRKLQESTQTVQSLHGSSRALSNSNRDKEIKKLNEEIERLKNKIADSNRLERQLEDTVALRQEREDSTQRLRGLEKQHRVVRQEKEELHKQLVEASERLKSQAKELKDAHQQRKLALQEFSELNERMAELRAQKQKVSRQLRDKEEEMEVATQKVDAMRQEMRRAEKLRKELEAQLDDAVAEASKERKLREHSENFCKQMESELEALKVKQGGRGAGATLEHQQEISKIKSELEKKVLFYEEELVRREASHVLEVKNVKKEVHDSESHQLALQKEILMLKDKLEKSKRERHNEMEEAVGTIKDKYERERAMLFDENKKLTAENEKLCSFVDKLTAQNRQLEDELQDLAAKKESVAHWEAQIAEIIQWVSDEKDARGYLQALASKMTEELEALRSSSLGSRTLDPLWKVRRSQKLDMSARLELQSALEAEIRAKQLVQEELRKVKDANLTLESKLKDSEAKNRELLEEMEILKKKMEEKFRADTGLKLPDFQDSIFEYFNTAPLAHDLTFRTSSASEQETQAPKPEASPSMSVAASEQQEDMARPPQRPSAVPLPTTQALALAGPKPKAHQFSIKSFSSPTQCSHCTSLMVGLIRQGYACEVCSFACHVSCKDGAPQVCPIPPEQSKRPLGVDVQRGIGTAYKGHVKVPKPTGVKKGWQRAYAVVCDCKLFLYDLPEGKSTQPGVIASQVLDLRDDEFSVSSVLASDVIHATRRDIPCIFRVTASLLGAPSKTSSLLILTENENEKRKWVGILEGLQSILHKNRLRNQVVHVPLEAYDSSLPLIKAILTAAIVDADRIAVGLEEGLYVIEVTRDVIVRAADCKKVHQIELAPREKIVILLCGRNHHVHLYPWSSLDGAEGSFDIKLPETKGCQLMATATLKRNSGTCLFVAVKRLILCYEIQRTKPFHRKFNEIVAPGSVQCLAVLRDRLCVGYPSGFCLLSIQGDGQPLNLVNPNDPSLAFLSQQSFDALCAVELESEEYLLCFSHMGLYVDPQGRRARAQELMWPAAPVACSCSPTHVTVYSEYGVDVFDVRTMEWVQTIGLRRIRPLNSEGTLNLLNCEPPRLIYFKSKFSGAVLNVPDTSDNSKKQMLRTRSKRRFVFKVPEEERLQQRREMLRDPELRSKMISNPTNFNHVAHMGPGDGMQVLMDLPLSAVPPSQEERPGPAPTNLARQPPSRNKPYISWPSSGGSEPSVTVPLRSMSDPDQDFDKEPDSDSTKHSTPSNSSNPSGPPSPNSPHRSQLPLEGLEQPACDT
UniProt Q15746, sequence (whole entry, looked up): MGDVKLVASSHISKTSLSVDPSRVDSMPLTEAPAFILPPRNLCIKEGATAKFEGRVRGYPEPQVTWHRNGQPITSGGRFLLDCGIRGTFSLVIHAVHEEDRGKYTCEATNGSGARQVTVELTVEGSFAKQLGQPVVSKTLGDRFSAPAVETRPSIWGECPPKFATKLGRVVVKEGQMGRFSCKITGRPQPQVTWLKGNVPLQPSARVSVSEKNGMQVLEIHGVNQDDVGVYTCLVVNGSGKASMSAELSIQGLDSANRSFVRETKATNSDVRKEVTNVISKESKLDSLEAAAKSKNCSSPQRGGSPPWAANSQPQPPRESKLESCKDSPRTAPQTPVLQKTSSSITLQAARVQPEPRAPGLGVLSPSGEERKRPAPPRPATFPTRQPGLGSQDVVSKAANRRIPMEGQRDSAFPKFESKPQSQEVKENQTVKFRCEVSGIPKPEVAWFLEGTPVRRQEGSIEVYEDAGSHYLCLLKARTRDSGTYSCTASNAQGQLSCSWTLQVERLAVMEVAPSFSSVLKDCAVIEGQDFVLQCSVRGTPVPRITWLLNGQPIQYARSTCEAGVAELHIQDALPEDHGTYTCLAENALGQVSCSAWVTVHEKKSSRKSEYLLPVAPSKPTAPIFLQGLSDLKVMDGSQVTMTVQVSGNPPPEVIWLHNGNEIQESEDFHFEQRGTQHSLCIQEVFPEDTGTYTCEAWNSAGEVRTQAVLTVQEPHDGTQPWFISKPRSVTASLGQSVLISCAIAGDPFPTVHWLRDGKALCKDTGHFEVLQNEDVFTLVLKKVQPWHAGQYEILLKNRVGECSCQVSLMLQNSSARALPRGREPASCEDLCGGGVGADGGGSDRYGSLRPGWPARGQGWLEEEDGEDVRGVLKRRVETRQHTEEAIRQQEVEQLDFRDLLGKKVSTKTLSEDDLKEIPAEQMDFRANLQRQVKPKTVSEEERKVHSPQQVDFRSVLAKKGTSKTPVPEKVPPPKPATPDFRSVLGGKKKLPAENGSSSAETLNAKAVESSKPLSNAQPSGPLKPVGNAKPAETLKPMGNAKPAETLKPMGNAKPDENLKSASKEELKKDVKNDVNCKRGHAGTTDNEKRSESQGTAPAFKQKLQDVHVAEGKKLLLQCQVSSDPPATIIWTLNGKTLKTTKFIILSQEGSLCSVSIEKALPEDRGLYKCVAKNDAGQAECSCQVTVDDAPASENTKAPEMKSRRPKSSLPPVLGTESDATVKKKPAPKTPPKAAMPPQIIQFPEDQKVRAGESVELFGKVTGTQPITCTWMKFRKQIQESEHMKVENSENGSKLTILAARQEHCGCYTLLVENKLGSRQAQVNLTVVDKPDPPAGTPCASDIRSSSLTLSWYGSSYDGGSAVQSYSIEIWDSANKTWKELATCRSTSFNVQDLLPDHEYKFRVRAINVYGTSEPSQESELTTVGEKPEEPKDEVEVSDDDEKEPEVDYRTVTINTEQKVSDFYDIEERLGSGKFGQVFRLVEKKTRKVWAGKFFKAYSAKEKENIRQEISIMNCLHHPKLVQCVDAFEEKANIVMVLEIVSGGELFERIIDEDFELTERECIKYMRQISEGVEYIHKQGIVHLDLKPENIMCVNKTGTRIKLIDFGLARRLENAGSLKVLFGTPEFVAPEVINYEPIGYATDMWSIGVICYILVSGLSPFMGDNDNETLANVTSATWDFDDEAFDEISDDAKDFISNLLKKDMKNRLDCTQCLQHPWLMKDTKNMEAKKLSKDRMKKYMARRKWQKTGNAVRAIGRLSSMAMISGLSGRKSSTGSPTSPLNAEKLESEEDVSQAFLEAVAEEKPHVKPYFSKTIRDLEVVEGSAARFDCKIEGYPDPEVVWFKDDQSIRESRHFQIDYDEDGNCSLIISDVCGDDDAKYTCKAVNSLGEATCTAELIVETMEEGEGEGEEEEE
UniProt P00519, sequence (whole entry, looked up): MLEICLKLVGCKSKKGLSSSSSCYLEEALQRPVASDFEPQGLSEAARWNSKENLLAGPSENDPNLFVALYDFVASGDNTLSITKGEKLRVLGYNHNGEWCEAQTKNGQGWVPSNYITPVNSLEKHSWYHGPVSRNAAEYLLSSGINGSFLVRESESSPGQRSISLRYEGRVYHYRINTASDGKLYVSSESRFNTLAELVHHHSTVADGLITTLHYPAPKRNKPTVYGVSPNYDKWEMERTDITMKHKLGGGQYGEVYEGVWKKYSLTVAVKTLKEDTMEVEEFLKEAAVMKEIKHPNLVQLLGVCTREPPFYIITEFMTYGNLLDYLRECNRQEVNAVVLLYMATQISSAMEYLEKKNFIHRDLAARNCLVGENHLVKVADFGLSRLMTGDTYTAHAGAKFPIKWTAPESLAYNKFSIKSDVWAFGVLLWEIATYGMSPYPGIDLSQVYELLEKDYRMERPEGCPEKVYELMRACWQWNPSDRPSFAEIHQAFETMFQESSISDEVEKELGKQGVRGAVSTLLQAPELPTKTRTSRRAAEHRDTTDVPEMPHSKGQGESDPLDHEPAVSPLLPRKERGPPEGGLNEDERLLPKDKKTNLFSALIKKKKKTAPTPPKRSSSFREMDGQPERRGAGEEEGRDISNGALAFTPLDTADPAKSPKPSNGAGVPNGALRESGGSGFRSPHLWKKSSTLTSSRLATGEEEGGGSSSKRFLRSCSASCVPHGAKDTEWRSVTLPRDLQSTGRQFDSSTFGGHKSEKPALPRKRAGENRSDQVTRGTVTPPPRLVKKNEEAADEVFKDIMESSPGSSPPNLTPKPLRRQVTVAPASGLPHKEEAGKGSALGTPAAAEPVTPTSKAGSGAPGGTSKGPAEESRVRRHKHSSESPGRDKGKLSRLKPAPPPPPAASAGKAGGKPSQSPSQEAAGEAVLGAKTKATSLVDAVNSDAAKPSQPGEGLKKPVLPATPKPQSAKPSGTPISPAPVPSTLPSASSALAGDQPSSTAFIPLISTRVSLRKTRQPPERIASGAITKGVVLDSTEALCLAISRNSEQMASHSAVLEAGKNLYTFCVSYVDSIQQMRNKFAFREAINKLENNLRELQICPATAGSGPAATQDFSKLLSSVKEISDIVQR
UniProt Q6P2M8, sequence (whole entry, looked up): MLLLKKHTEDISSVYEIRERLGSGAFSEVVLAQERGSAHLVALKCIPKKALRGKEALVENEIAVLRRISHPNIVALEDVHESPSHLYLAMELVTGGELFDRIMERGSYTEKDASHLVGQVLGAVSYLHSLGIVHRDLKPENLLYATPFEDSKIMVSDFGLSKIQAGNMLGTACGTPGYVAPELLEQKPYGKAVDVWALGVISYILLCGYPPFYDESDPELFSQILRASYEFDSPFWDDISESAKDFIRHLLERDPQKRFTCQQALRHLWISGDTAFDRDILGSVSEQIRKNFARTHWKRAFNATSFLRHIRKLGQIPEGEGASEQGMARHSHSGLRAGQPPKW

Set 1
Structure (SMILES): CC(C)S(=O)(=O)c1ccc2nccc(Nc3ccc4sc(C5CCCC5)nc4c3)c2c1
Effect on: enzyme activity
Action: inhibitor
Concentration: 1 µM
Endpoint: activity vs control
PNCK (Homo sapiens, UniProt Q6P2M8): 115%
TTK (Homo sapiens, UniProt P33981): 94%
CDC42BPB (Homo sapiens, UniProt Q9Y5S2): 115%
CSNK2A2 (Homo sapiens, UniProt P19784): 102%
ULK1 (Homo sapiens, UniProt O75385): 100%
TGFBR1 (Homo sapiens, UniProt P36897): 94%
PRKD3 (Homo sapiens, UniProt O94806): 99%
ABL1 (Homo sapiens, UniProt P00519): 85%

Set 2
Target: Serine/threonine-protein kinase Nek9 (NEK9, Homo sapiens, UniProt Q8TD19)
Effect on: enzyme activity
Action: inhibitor
Concentration: 0.5 µM
Baseline: control
Endpoint: remaining activity
Target sequence (Q8TD19 1-979): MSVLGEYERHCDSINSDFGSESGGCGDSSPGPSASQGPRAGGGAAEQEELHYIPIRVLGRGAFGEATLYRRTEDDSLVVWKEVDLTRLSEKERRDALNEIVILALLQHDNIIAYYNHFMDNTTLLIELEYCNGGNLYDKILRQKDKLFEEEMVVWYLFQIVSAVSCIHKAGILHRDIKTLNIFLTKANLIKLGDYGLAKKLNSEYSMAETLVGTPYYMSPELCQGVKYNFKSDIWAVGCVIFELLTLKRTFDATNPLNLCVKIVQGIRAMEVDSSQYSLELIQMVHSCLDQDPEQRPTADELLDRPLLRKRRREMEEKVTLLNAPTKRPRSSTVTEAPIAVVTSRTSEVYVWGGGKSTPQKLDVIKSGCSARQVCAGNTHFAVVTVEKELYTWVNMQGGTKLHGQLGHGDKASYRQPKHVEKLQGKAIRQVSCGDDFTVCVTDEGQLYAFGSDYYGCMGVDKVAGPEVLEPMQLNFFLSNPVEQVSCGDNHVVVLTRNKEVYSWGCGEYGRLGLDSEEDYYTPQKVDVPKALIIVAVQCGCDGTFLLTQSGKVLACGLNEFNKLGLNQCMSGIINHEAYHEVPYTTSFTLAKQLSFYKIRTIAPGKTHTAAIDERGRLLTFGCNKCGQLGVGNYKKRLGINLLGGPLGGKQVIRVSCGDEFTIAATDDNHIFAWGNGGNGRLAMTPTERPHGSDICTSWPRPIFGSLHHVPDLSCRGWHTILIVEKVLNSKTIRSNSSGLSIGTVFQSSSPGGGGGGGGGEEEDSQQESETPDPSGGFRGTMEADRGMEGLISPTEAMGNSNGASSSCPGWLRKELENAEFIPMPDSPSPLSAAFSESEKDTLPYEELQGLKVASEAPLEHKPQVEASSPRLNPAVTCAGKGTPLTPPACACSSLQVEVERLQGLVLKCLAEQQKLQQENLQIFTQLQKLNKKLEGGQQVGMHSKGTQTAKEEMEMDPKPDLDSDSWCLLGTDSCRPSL
N#CC(c1ccnc(NCCc2cccnc2)n1)c1nc2ccccc2s1 (centres unmarked): 94.4%
O=c1cc(N2CCOCC2)oc2c(-c3ccccc3)cccc12: 101%
N#C/C(=C(/N)SC1C=CC=CC1)c1cccc(C(O)c2ccncc2)c1 (centres unmarked): 99%
N#Cc1cnc2cnc(NCc3cccnc3)cc2c1Nc1ccc(F)c(Cl)c1: 96.3%
O=C1NC(=O)c2c1c1c3ccccc3[nH]c1n1cncc21: 77.4%
CN1CCN(c2ccc3nc(-c4c(N)c5c(F)cccc5[nH]c4=O)[nH]c3c2)CC1: 58.9%
c1ccc2c(-c3ccncc3)c[nH]c2c1: 101%
O=C1Nc2ccc(Br)cc2/C1=C/c1cc2c([nH]1)CCCC2: 85.6%
COc1cccc(-c2cc(=O)c3ccccc3o2)c1N: 102%
COc1ccc(COc2ccc(Cc3cnc(N)nc3N)cc2OC)cc1: 93.3%
C[C@@H](N)[C@H]1CC[C@H](C(=O)Nc2ccncc2)CC1: 93.1%
O=C1NC(=O)/C(=C/c2ccc3c(c2)OC(F)(F)O3)S1: 109%
CC(C)(C)c1nc2c3cc[nH]c(=O)c3c3cc(F)ccc3c2[nH]1: 71.7%
O=C1Cc2c([nH]c3ccc(Br)cc23)-c2ccccc2N1: 94%
Nc1nc(Nc2ccc(S(N)(=O)=O)cc2)nn1C(=S)Nc1c(F)cccc1F: 39.1%
CCN(CC)CCCCN1c2ccccc2Oc2ccc(Cl)cc21: 98.8%
c1ccc(-c2n[nH]c3c2oc2ccccc23)cc1: 99%
COc1cc2c(Nc3ccc(Br)cc3F)ncnc2cc1OCC1CCN(C)CC1: 101%
CNc1cc2c(Nc3cccc(Br)c3)ncnc2cn1: 99.4%
O=C1Nc2ccccc2/C1=C\c1c(Cl)[nH]c2ccccc12: 94.2%
O=c1c(-c2ccc(F)cc2)c(-c2ccncc2)[nH]n1-c1ccc(Cl)cc1: 107%
O=C(O)/C=C/c1cc(Br)c(Br)c(Br)c1Br: 94.7%
CCCCc1c(-c2ccc(O)cc2)[nH]c2nccnc12: 105%
O=C(c1ccccc1)c1ccc(N2CCOCC2)cc1O: 103%
Cc1ccc(S(=O)(=O)/C=C/C#N)cc1: 95.6%

Set 3
Compound: Cc1cc(NC(=O)c2cccc(S(F)(F)(F)(F)F)c2)cc(-n2ccn3nc(-c4cccnc4)cc23)c1
Effect on: cell-free assay
Technique: competition with immobilised ligand
Concentration: 1 µM
Endpoint: remaining binding
PIK3C2B (Homo sapiens, UniProt O00750): 100%
CAMK2A (Homo sapiens, UniProt Q9UQM7): 100%
MYLK (Homo sapiens, UniProt Q15746): 91.8%
PLK2 (Homo sapiens, UniProt Q9NYY3): 100%
LATS2 (Homo sapiens, UniProt Q9NRM7): 100%
ERBB3 (Homo sapiens, UniProt P21860): 49.4%
EGFR (Homo sapiens, UniProt P00533, del752-759): 100%

Set 4
Target: Diamine acetyltransferase 1 (Homo sapiens, UniProt P21673)
Action: inhibitor
Concentration: 10 µM
Baseline: control
Endpoint: remaining activity
Target sequence (P21673 1-171): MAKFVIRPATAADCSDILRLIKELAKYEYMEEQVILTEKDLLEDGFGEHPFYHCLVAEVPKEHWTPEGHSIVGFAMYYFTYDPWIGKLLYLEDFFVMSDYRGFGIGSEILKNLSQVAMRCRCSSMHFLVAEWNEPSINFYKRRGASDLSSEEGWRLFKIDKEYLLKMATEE
CC1(C)[C@@H](O[C@H]2O[C@H](C(=O)O)[C@@H](O)[C@H](O)[C@H]2O[C@@H]2O[C@H](C(=O)O)[C@@H](O)[C@H](O)[C@H]2O)CC[C@]2(C)[C@H]3C(=O)C=C4[C@@H]5C[C@@](C)(C(=O)O)CC[C@]5(C)CC[C@@]4(C)[C@]3(C)CC[C@@H]12: 90.1%
C[C@@H]1O[C@@H](O[C@H]2[C@H](O[C@H]3CC[C@@]4(C)[C@@H](CC[C@]5(C)[C@@H]4CC=C4[C@@H]6CC(C)(C)CC[C@]6(C(=O)O[C@@H]6O[C@H](CO[C@@H]7O[C@H](CO)[C@@H](O)[C@H](O)[C@H]7O)[C@@H](O)[C@H](O)[C@H]6O)CC[C@]45C)[C@]3(C)CO)OC[C@H](O)[C@@H]2O)[C@H](O)[C@H](O[C@@H]2O[C@H](CO)[C@@H](O)[C@H](O)[C@H]2O)[C@H]1O: 99.4%
Cc1cc(O)cc2c1O[C@](C)(CCC[C@H](C)CCC[C@H](C)CCCC(C)C)CC2: 95.7%
CC(=O)OCc1ccccc1: 111%
C/C=C/C=C/C(=O)O: 84.1%
COc1cc(-c2oc3cc(O)cc(O)c3c(=O)c2O)ccc1O: 88%
O=P(O)(O)O[C@H]1[C@H](OP(=O)(O)O)[C@@H](OP(=O)(O)O)[C@H](OP(=O)(O)O)[C@@H](OP(=O)(O)O)[C@H]1OP(=O)(O)O: 83.8%
O=C(O)c1c[nH]c2ccccc12: 76%
C[C@@H]1CC[C@@]2(OC1)O[C@H]1C[C@H]3[C@@H]4CC=C5C[C@@H](O)CC[C@]5(C)[C@H]4CC[C@]3(C)[C@H]1[C@@H]2C: 93.3%
NCCCC(=O)O: 104%

Some of these lines once more (set 2):
O=C1NC(=O)/C(=C/c2ccc3c(c2)OC(F)(F)O3)S1: 109%
O=C1Nc2ccc(Br)cc2/C1=C/c1cc2c([nH]1)CCCC2: 85.6%
COc1cc2c(Nc3ccc(Br)cc3F)ncnc2cc1OCC1CCN(C)CC1: 101%
CN1CCN(c2ccc3nc(-c4c(N)c5c(F)cccc5[nH]c4=O)[nH]c3c2)CC1: 58.9%
c1ccc(-c2n[nH]c3c2oc2ccccc23)cc1: 99%
C[C@@H](N)[C@H]1CC[C@H](C(=O)Nc2ccncc2)CC1: 93.1%
O=c1cc(N2CCOCC2)oc2c(-c3ccccc3)cccc12: 101%
O=C(c1ccccc1)c1ccc(N2CCOCC2)cc1O: 103%
